{"data": "Results from different studies", "note": "Lines come from different studies, so protocols differ."}
{"Structure (SMILES)": "Fc1ccc([C@@H]2CCNC[C@H]2COc2ccc3c(c2)OCO3)cc1", "system": "human, all CYP2D6 genotypes", "setting": "oral, 20 mg, steady state, geometric mean", "Vz/F [L]": 1130}
{"Structure (SMILES)": "C[C@@H](c1ccc2nccn2c1)n1nnc2ncc(-c3cnn(C)c3)nc21", "system": "human, plasma", "setting": "oral, cycle 2 day 1, multiple doses, all", "Vz/F [L]": 218}
{"Structure (SMILES)": "C=CC(=O)N1C[C@H](Nc2ncnc3[nH]ccc23)CC[C@@H]1C", "system": "human, plasma", "setting": "oral, 50 mg single dose, alone without rifampicin", "Vz/F [L]": 192}
{"Structure (SMILES)": "Cc1cc(C)c(CNC(=O)c2cc(Cl)c3c(c2C)O[C@@](C)([C@H]2CC[C@H](N(C)C)CC2)O3)c(=O)[nH]1", "test": "mean", "system": "healthy male humans, plasma", "setting": "oral, 25 mg, day 12, with: fluconazole", "Vz/F [L]": 806}
{"Structure (SMILES)": "CC(C)c1nc(N(C)S(C)(=O)=O)nc(-c2ccc(F)cc2)c1/C=C/[C@@H](O)C[C@@H](O)CC(=O)O", "system": "healthy human subjects, plasma", "setting": "oral, 10 mg, arithmetic mean, with: fruquintinib 5 mg", "Vz/F [L]": 7900}
{"Structure (SMILES)": "Cn1cc(-c2cn3nccc3c(-c3cnn([C@]4(CC#N)C[C@@H](C#N)C4)c3)n2)cn1", "system": "healthy human, plasma", "setting": "30 mg once daily, day 10, multiple dose, fed, geometric mean", "Vz/F [L]": 434}
{"Structure (SMILES)": "CCOc1cc(CC(=O)N[C@@H](CC(C)C)c2ccccc2N2CCCCC2)ccc1C(=O)O", "system": "human", "setting": "oral, substrate with omaveloxolone, with: omaveloxolone once daily", "Vz/F [L]": 168}
{"Structure (SMILES)": "CC(C)c1nc(N(C)S(C)(=O)=O)nc(-c2ccc(F)cc2)c1/C=C/[C@@H](O)C[C@@H](O)CC(=O)O", "system": "human", "setting": "oral, 10 mg, with: vepdegestrant 200 mg", "Vz/F [L]": 7490}
{"Structure (SMILES)": "CN1C(=O)[C@@H](NC(=O)c2nnc(Cc3ccccc3)[nH]2)COc2cccnc21", "system": "healthy human, fasted, plasma", "setting": "oral, 100 mg single dose, geometric mean", "Vz/F [L]": 50.9}
{"Structure (SMILES)": "CC1(C)CC[C@]2(NC(=O)C(C)(F)F)CC[C@]3(C)[C@H](C(=O)C=C4[C@@]5(C)C=C(C#N)C(=O)C(C)(C)[C@@H]5CC[C@]43C)[C@@H]2C1", "system": "human, plasma", "setting": "oral, 150 mg single dose, alone, geometric mean", "Vz/F [L]": 10000}
{"Structure (SMILES)": "CNC(=O)c1c(C)oc2cc(Oc3ncnc4cc(OC)c(OC)cc34)ccc12", "system": "healthy human subjects, plasma", "setting": "oral, 5 mg, arithmetic mean, with: dabigatran etexilate 150 mg", "Vz/F [L]": 43.4}
{"Structure (SMILES)": "C#C[C@]1(CO)O[C@@H](n2cnc3c(N)nc(F)nc32)C[C@@H]1O", "system": "human, plasma", "setting": "oral, 200 mg, single dose, geometric mean", "Vz/F [L]": 2410}
{"Structure (SMILES)": "CN(C)C(=O)c1cc2cnc(Nc3ccc(N4CCNCC4)cn3)nc2n1C1CCCC1", "system": "human, end-stage renal disease, plasma", "setting": "oral, 400 mg, single dose, geometric mean", "Vz/F [L]": 2300}
{"Structure (SMILES)": "[H]/N=C(/N)c1ccc(NCc2nc3cc(C(=O)N(CCC(=O)O)c4ccccn4)ccc3n2C)cc1", "system": "healthy human subjects, plasma", "setting": "oral, 150 mg, dabigatran etexilate, arithmetic mean, with: fruquintinib 5 mg", "Vz/F [L]": 2550}
{"Structure (SMILES)": "C[C@H](Oc1ccc(Br)cc1-c1ccon1)C(=O)O", "system": "human, plasma", "setting": "oral, 400 mg twice daily, day 10, multiple ascending dose", "Vz/F [L]": 31.6}
{"Structure (SMILES)": "CNC(=O)n1ccc2cc(Oc3ccnc(NC(=O)c4ccc(C5CCN(CCO)CC5)cc4)c3)c(OCCOC)cc21", "system": "healthy human, plasma", "setting": "oral, 35 mg, geometric mean, alone", "Vz/F [L]": 13700}
{"note": "Some of these lines once more:"}
{"Structure (SMILES)": "Cn1cc(-c2cn3nccc3c(-c3cnn([C@]4(CC#N)C[C@@H](C#N)C4)c3)n2)cn1", "system": "healthy human, plasma", "setting": "30 mg once daily, day 10, multiple dose, fed, geometric mean", "Vz/F [L]": 434}
